Experimental data pooled from the literature.
Each line is one published result; not all experiments were run side by side.
Technique: steady-state kinetics
B1: UGP (Trypanosoma brucei, UniProt D3HTY9); chain MPLNPPSAFSGAALACLEKMQASGVEEKCIHIFLIQHALVRKGETGYIPEKSISPVESLPFLQGIETKGENTALLRQAVVLKLNGGLGTGMGLNGPKSLLQVKNGQTFLDFTALQLEHFRQVRNCNVPFMLMNSFSTSGETKNFLRKYPTLYEVFDSDIELMQNRVPKIRQDNFFPVTYEADPTCEWVPPGHGDVYTVLYSSGKLDYLLGKGYRYMFISNGDNLGATLDVRLLDYMHEKQLGFLMEVCRRTESDKKGGHLAYKDVIDETTGQTRRRFVLRESAQCPKEDEDSFQNIAKHCFFNTNNIWINLMELKKMMDEQLGVLRLPVMRNPKTVNPQDSQSTKVYQLEVAMGAAISLFDRSEAVVVPRERFAPVKTCSDLLALRSDAYQVTEDQRLVLCEERNGKPPAIDLDGEHYKMIDGFEKLVKGGVPSLRQCTSLTVRGLVEFGADVSVRGNVVIKNLKEEPLIIGSGRVLDNEVVVVE
B2: iodotyrosine deiodinase (Haliscomenobacter hydrossis, UniProt F4KU78); chain MKQKPAFIPYAGAQFEPEEMLSKSAEYYQFMDHRRTVREFSNRAIPLEVIENIVMTASTAPSGAHKQPWTFVVVSDPQIKAKIRQAAEKEEFESYNGRMSNEWLEDLQPFGTDWHKPFLEIAPYLIVVFRKAYDVLPDGTQRKNYYVQESVGIACGFLLAAIHQAGLVALTHTPSPMNFLQKILQRPENERPFLLVPVGYPAEGAMVPDLQRKDKAAVMVVY
B3: speck E82A (Drosophila melanogaster, UniProt Q94521); chain MEDALTVSGKPAACPVDQDCPYTIELIQPEDGEAVIAMLKTFFFKDAPLNTFLDLGECKELEKYSLKPLPDNCSYKAVNKKGEIIGVFLNGLMRRPSPDDVPEKAADSCEHPKFKKILSLMDHVEEQFNIFDVYPDEELILDGKILSVDTNYRGLGIAGRLTERAYEYMRENGINVYHVLCSSHYSARVMEKLGFHEVFRMQFADYKPQGEVVFKPAAPHVGIQVMAKEVGPAKAAQTKL
B4: protein (Streptomyces sp. NRRL 30471, UniProt F2WUC8); chain MVRADYRTPEVNDVVRYRYGAAETALLKNRISEFGFTMAEVPGECAPQTEIERLGKALGLGEPYVAALYQRGDTRAHGALYTDVRSRAHNTHPGFGTTEGQTIHVDGLLEPIGTIRTTILFCVRPAVSGGRTVLFNSSAAFETLRHSDPAAAESLRDPGVLRRRSTLPNVDAGHTGPAFAYDNGLLITRYSEGPTVEWNAPPGRSAELERALNFLRAAAEDKRYSIALRLGAGEALIFRNDVISHGREAYRDDPAAPRHLIRTLYLESP
B5: putA E639A (Bradyrhizobium diazoefficiens, UniProt Q89E26); chain MPNIPPPFTAPYAPDDAEIAARLLPASHLSPPQEARIHRTATRLIEAIRKRDDRLGGVEDMLREFALSTKEGLALMVLAEALLRVPDARTADQFIEDKLGEGDFIHHETKSTAFLVNASAWALGLSARVIQPGETPDGTIGRLVKRLGAPAVRTATRQAMRLMGNHFVLGETIEQALERGKPRSGQKTRYSFDMLGEGARTAADARRYFDAYASAIETIGKAAGNHALPDRPGISVKLSALHPRFEAISRARVMVELVPQLLDLAQRAKAHDLNFTVDAEEADRLELSLDVIAATLADPSLKGWDGFGLAIQAYQKRASAVIDYVDALARAHDRKLMVRLVKGAYWDTEIKRAQERGLDGYPVFTRKAMTDLNYVACASKLLALRPRIFPQFATHNALTVATVLEMAEGSSGFEFQRLHGMGEALYEQLAKDHADIAYRTYAPVGSHRDLLAYLVRRLLENGANSSFVAQAADYRVPVPALLQRPADAIVRPQAAAHPRIPLPCDLFAPERRNSRGVEFGARTALDQLLTDVKAETGDLKPIADATPDQAHAAVAAARAGFAGWSRTPAGIRAAALEQAAHLLESRSAHFIALLQREGGKTLDDALSELREAADFCRYYAAQGRKLFGSETAMPGPTGASNALTMRGRGVFVAISPWNFPLAIFLGQVTAALMAGNSVVAKPAEQTPRIAREAVALLHEAGIPKSALYLVTGDGRIGAALTAHPDIAGVVFTGSTEVARSINRALAAKDGPIVPLIAETGGINAMIADATALPEQVADDVVTSAFRSAGQRCSALRLLFVQEDVADRMIEMVAGAARELKIGDPSDVATHVGPVIDVEAKQRLDAHIARMKTEARLHFAGPAPEGCFVAPHIFELTEAGQLTEEVFGPILHVVRYRPENLERVLRAIERTGYGLTLGVHSRIDDSIEAIIDRVQVGNIYVNRNMIGAVVGVQPFGGNGLSGTGPKAGGPHYLARFATEQTVTINTAAAGGNAALLAGEE
B6: enzyme (Schizosaccharomyces pombe, UniProt Q9Y7P0); chain MFTGLVEAIGVVKDVQGTIDNGFAMKIEAPQILDDCHTGDSIAVNGTCLTVTDFDRYHFTVGIAPESLRLTNLGQCKAGDPVNLERAVLSSTRMGGHFVQGHVDTVAEIVEKKQDGEAIDFTFRPRDPFVLKYIVYKGYIALDGTSLTITHVDDSTFSIMMISYTQSKVIMAKKNVGDLVNVEVDQIGKYTEKLVEAHIADWIKKTQA
B7: FNO G29L (Thermobifida fusca, UniProt Q47RA9); chain MIMIMASKSSPHDLPDVSGLSIAVLGGTLDQGRGLARRFAMAGHEVILGSRSAERAQAVAAELGEGLPVRGMDNAGAAEAGDVVIVAVPWDGHRALLESLKDVLAGKIVVDCVNPLGFDKRGAYALPVEEGSAAEQAAAILPDSRVVAAFHHVSAVLLLDPEVEKVDLDVLVLGDDREATDVVRALAARIPGVRGVYGGRLRNAHQVEAFTANLISINRRYKAHAGIRITDI
Sequence of UniProt Q4G0N4 (whole entry, unmodified, looked up): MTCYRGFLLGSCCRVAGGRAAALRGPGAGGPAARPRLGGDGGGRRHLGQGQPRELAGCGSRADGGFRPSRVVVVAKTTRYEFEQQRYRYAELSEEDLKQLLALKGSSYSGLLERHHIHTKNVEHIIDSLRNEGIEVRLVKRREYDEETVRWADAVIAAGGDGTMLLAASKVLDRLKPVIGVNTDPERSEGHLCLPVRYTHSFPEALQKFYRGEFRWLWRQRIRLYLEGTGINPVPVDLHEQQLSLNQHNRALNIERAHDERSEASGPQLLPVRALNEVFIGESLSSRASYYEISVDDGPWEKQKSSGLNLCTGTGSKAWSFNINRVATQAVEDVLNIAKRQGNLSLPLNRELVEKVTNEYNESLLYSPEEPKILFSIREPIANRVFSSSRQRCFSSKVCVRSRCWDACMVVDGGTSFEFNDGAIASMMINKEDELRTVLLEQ
Sequence of UniProt P0AC23 (whole entry, looked up): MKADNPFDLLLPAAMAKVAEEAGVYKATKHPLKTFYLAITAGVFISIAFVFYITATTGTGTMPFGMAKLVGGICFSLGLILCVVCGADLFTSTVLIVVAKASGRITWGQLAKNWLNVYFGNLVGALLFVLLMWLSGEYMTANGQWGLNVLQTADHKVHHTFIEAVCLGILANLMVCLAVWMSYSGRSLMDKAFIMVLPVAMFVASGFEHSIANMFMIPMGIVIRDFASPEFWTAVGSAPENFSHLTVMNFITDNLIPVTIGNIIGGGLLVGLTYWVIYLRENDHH
Sequence of UniProt O60656 (whole entry, looked up): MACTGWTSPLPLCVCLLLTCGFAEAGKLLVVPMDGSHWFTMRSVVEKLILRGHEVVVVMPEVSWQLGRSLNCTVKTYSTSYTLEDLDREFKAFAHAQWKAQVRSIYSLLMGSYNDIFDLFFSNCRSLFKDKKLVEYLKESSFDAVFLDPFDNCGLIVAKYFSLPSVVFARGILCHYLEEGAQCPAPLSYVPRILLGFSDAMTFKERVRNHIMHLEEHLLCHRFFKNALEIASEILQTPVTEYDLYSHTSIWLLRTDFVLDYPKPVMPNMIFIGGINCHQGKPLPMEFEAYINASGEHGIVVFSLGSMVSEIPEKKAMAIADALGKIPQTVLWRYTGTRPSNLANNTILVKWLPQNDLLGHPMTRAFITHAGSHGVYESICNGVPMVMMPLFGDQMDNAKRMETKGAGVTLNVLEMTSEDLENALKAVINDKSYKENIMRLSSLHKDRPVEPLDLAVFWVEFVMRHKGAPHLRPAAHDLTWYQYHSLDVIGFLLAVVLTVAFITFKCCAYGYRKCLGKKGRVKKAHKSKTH
Sequence of UniProt P31513 (whole entry, looked up): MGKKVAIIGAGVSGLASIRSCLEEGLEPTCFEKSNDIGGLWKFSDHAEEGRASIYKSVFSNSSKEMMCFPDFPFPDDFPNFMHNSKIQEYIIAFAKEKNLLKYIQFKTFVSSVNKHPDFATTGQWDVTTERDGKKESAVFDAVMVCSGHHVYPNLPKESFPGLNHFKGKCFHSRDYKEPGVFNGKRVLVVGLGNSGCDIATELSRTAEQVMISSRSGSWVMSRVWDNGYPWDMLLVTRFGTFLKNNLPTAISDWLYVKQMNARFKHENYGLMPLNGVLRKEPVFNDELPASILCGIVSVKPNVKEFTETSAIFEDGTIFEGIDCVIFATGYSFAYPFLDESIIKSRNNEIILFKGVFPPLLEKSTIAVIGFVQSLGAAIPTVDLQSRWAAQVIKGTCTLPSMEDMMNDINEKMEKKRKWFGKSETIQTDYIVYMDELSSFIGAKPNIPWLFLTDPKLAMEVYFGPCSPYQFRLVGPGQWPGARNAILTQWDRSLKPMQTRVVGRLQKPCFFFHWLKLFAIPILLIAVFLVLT

The Km of `NADK2 (Homo sapiens, UniProt Q4G0N4)` is reported as 1200 µM (O=P(O)(O)OP(=O)(O)OP(=O)(O)OP(=O)(O)O; pH 8, 37 °C).
`B1 (UGP)` has a Km of 122 µM (O=P(O)(O)O[C@H]1O[C@H](CO)[C@@H](O)[C@H](O)[C@H]1O; pH 7.2, apparent).
`FMO3 (Homo sapiens, UniProt P31513)` has a Km of 80 µM (CN(C)CCCOc1nn(Cc2ccccc2)c2ccccc12; 37 °C, not purified).
With `protein (Shewanella denitrificans, UniProt Q12KT8)` the Km was 45 µM (Cc1cn([C@H]2C[C@H](O)[C@@H](COP(=O)(O)OP(=O)(O)O[C@H]3O[C@H](C)[C@H](O)[C@H](N)[C@H]3O)O2)c(=O)[nH]c1=O; pH 8.5, with: acetyl-CoA 2 mM).
With `B2 (iodotyrosine deiodinase)` the Km was 74 µM (N#Cc1cc(C[C@H](N)C(=O)O)cc(I)c1O; pH 7.4, 25 °C).
For `B3 (speck E82A)`, the Km was 40 µM (CC(=O)SCCNC(=O)CCNC(=O)[C@H](O)C(C)(C)COP(=O)(O)OP(=O)(O)OC[C@H]1O[C@@H](n2cnc3c(N)ncnc32)[C@H](O)[C@@H]1OP(=O)(O)O; pH 7.2, 30 °C).
The Km of `B4 (protein)` is reported as 21 µM (O=c1ccn([C@@H]2O[C@H](COP(=O)(O)O)[C@@H](O)[C@H]2O)c(=O)[nH]1; pH 7.5, 30 °C, with: αKG 2 mM, ascorbic acid 2 mM, FeCl2 0.4 mM).
With `B5 (putA E639A)` the Km was 85000 µM (O=C(O)[C@@H]1CCCN1; pH 8, 23 °C).
With `B6 (enzyme)` the Km was 5.7 µM (Cc1nc2c(=O)[nH]c(=O)nc-2n(C[C@H](O)[C@H](O)[C@H](O)CO)c1C; pH 7.2, 37 °C, apparent).
The Km of `focA (Escherichia coli, UniProt P0AC23)` is reported as 100000 µM (O=CO; pH 6.8, 19 °C, apparent, not purified).
`B7 (FNO G29L)` has a Km of 18000 µM (CCC[n+]1cccc(C(N)=O)c1; pH 8, 25 °C, with: F420H2 40 µM).
`UGT1A9 (Homo sapiens, UniProt O60656)` gave a Km of 1.15 µM (COc1c(O)cc2oc(-c3ccc(O)c(O)c3)cc(=O)c2c1O; pH 7.4, 37 °C).

Some of these lines once more:
`B7 (FNO G29L)` has a Km of 18000 µM (CCC[n+]1cccc(C(N)=O)c1; pH 8, 25 °C, with: F420H2 40 µM).
